Results of several laboratories.
Numbered parts are unrelated; each lists some results of a single study.

Series 1
Target: Fragile X messenger ribonucleoprotein 1, C-terminal low-complexity region (Fmr1, Mus musculus, UniProt P35922)
Method: RNA Bind-n-Seq
Form: RNA
Matrix: in vitro
Tested at: 200 nM
Setting: whole 134-nt RNA, ends assumed
Added: 150 mM KCl
Relative to: input library
Reading: higher = stronger binding
Endpoint: log2 enrichment
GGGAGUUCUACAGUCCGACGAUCCCCAUGCAGGUGGGCAUCUUUGGGAAGUGGGGCAAGGGGGGGAUAGGGAGGGGGGUAACACUUUGGGAACAGGUGGUCCCAGGUCGUUUCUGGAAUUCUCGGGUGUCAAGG: 0.655
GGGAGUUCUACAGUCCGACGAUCAAGUCCUGUGCUACACAUCGUAUGUACCGAAUCGGGUUUGGGUUUGGGUUUUUGGGAAAGUAUUAUGUUACGCCGUUCGGAUCUGCACUUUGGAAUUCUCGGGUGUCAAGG: 0.706
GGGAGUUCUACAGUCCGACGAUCUAGGAGGUGGAUUUUGUUUAUUUUUUUAGCUCAUUUCCAGGGGUGGGAAUUUUUUUUUAAUAUGUGUCAUGAAUAAAGUUGUUUUUGAAAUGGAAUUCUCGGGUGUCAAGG: -0.154
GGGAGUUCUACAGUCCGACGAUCAAGUCCUGUGCUACACAUCGUAUGUACCGAAUCGGGUUUUUUUGGGAAAGGGAGGGAAAGUAUUAUGUUACGCCGUUCGGAUCUGCACUUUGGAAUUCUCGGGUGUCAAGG: 0.747
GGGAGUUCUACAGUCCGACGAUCUGGGAGGUGGAUUUUGUUUAUUUUUUUAGCUCAUUUACAGGGGUGGGAAUUUUUUUUUAAUAUGUGUCAUGAAUAAAGUUGUUUUUGAAAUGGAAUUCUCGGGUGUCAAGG: 0.201
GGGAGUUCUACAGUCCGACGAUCCUCAAGUCCUGUGCUACACAUCGUAUGUACCGAAUCGGGGCGGCGGGGCGGGGAAAGUAUUAUGUUACGCCGUUCGGAUCUGCACUUCCAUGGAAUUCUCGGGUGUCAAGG: 1.03
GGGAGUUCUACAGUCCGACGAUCUGGCCCUGGUGGCAUGCGGGGAGGAAGUGGUGGCCUCAUGGAUCGUGGUGGUCCCGGUGGAAUGUUCAGAGGUGGCCGUGGUGGAGACAGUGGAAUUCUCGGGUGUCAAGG: 0.177
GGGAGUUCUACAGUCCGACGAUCUCCUGUGCUACACAUCGUAUGUACCGAAUCGGGAAAAAAGGAAAAAAGGAAAAAAGGGGAAAGUAUUAUGUUACGCCGUUCGGAUCUGCAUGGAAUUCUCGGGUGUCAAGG: -0.56
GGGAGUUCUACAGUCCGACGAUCUGGGAGGUGGAUGUUGUUUAUUUUUUUAGCUCAUUUCCAGGGGUGGGAAUUUUUUUUUAAUAUGUGUCAUGAAUAAAGUUGUUUUUGAAAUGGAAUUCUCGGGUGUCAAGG: 0.204

Series 2
Target: Hepatocyte nuclear factor 3-beta, forkhead domain (FOXA2, Homo sapiens, UniProt Q9Y261, residues 142-269)
Method: protein-binding microarray
Form: double-stranded DNA, one strand shown
Matrix: in vitro
Tested at: not given
Setting: k-mer, scored over probes, only values ≥0.25
Reading: higher = stronger binding
Endpoint: E-score
Residues (chain): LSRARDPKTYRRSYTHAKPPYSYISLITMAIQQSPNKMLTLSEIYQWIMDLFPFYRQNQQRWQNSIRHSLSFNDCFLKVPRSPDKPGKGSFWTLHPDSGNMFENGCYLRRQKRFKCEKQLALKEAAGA
ATGTAACA: 0.359
AAATATTT: 0.384
TAATGATA: 0.28
TTAACCAA: 0.32
ATATGTAC: 0.396
ACACATTA: 0.318

Series 3
Target: Histone acetyltransferase KAT6A, both winged helices, GST fusion (KAT6A, Homo sapiens, UniProt Q92794, residues 1-181)
Method: protein binding microarray
Form: double-stranded DNA, one strand shown
Matrix: in vitro
Tested at: not given
Setting: 8-mer, flanks averaged, mean of 2 arrays, mostly near background
Relative to: not given
Reading: higher = stronger binding
Endpoint: E-score
Target sequence (chain): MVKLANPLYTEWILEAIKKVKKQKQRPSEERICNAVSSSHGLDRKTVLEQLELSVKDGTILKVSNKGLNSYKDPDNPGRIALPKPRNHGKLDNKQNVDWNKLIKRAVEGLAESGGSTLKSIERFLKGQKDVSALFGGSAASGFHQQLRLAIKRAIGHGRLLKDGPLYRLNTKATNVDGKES
ACGCTCTG: 0.0505
AGTTCAAG: -0.0689
CTGTGAGA: -0.0105
TAAGTGTA: -0.0878
TAGCTCCA: -0.165
AACAGTCT: -0.0289
CGCATCTC: 0.188
TCTTGTAA: -0.0592

Further values, each from its own experiment
PhoQ, residues 284 288 289 292 302 303 SNSSNI — fold induction (PhoP, residues 12 14 15 18 19 HEGLL (Escherichia coli, UniProt P23836); Sort-seq, measured: YFP reporter; E. coli; PhoQ-PhoP variant library, added: 10 µM Mg2+; relative to: high Mg2+ state, higher = stronger signaling): 1.01
